Measurements gathered from unrelated publications.
Compare with care: the assays were run in different laboratories. ± gives the spread as reported.
RAD52: DNA repair protein RAD52 homolog (RAD52, Homo sapiens, UniProt P43351)
UniProt P43351, sequence (whole entry, looked up): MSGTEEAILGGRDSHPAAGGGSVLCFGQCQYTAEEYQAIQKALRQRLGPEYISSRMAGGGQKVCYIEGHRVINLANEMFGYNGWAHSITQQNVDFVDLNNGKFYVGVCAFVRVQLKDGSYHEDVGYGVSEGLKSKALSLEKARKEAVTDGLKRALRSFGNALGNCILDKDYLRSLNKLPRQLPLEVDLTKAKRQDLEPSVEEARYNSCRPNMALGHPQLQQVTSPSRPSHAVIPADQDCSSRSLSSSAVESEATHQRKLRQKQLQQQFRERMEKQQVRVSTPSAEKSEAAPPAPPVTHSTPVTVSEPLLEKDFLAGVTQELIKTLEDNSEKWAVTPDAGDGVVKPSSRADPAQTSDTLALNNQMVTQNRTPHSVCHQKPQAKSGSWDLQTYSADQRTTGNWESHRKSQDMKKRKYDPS
Ugcg: Ceramide glucosyltransferase (Ugcg, Mus musculus, UniProt O88693)
UniProt O88693, sequence (whole entry, looked up): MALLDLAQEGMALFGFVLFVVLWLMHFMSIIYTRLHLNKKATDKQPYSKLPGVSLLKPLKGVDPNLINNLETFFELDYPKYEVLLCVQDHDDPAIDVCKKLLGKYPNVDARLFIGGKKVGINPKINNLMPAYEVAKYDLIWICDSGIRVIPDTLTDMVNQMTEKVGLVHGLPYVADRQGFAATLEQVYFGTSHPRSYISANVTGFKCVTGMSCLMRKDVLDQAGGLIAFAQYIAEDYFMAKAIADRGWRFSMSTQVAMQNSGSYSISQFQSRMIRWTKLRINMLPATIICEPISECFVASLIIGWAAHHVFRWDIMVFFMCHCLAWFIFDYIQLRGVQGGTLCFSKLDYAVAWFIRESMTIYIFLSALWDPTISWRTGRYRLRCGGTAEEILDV
DRD3: D(3) dopamine receptor (DRD3, Homo sapiens, UniProt P35462)
UniProt P35462, sequence (whole entry, looked up): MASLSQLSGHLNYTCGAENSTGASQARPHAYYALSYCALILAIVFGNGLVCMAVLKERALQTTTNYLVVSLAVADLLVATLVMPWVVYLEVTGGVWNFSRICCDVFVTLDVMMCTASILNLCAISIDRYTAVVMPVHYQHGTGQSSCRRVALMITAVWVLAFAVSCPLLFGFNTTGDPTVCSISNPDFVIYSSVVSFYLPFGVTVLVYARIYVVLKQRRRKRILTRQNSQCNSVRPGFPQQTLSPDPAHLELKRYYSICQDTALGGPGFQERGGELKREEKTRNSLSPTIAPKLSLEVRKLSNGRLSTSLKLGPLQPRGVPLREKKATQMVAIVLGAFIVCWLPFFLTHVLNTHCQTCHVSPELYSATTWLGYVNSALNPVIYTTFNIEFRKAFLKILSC
CSNK2A2: Casein kinase II subunit alpha' (CSNK2A2, Homo sapiens, UniProt P19784)
UniProt Q9UM73, sequence (whole entry, unmodified, looked up): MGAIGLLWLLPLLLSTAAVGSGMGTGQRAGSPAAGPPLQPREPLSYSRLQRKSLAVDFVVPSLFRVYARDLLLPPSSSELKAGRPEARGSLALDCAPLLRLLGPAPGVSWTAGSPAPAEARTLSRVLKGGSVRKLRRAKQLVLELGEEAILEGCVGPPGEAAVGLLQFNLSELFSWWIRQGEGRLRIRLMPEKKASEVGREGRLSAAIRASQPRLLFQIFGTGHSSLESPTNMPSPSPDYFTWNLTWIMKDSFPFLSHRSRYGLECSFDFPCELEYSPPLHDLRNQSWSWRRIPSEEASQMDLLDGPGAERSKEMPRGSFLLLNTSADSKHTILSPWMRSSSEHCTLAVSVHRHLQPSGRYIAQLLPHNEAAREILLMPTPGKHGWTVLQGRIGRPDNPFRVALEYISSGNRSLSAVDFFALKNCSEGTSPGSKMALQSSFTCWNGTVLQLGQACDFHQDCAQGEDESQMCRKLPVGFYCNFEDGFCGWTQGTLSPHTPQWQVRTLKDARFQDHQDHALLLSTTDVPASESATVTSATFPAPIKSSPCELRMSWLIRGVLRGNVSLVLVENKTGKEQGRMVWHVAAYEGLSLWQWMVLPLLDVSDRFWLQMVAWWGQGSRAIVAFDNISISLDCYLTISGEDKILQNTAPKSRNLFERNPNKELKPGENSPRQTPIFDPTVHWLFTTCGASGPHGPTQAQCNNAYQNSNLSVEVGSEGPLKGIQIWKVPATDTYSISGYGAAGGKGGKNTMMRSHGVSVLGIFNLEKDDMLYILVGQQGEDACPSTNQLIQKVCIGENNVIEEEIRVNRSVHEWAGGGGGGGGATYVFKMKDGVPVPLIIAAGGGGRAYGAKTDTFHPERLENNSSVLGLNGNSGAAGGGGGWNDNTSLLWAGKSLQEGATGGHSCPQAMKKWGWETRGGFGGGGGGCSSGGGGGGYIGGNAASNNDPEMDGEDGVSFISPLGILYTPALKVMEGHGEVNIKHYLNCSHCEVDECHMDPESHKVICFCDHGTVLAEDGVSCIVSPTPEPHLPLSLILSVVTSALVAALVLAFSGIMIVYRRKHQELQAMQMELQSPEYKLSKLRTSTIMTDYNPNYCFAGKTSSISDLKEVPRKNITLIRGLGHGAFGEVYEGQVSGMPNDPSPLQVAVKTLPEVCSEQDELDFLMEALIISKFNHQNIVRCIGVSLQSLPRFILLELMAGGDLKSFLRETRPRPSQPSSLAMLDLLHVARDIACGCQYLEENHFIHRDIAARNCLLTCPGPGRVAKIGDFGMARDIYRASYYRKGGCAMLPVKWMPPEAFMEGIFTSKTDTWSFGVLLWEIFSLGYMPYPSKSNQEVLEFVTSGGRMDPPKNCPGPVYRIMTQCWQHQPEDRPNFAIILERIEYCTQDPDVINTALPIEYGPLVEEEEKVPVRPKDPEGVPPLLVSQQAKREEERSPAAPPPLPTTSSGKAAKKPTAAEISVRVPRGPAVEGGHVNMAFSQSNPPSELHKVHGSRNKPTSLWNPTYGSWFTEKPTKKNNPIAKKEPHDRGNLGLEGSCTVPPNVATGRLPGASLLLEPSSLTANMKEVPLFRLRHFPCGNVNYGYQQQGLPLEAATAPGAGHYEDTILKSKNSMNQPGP
UniProt P19784, sequence (whole entry, looked up): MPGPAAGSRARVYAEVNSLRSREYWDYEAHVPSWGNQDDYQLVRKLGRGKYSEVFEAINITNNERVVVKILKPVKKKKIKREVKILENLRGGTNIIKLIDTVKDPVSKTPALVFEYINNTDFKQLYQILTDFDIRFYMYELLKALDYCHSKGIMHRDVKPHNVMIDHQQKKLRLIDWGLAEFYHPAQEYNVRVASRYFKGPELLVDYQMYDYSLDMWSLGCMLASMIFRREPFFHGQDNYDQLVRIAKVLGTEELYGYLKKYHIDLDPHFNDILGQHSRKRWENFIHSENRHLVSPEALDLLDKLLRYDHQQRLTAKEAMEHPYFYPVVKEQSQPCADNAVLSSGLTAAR
UniProt P10275, sequence (whole entry, looked up): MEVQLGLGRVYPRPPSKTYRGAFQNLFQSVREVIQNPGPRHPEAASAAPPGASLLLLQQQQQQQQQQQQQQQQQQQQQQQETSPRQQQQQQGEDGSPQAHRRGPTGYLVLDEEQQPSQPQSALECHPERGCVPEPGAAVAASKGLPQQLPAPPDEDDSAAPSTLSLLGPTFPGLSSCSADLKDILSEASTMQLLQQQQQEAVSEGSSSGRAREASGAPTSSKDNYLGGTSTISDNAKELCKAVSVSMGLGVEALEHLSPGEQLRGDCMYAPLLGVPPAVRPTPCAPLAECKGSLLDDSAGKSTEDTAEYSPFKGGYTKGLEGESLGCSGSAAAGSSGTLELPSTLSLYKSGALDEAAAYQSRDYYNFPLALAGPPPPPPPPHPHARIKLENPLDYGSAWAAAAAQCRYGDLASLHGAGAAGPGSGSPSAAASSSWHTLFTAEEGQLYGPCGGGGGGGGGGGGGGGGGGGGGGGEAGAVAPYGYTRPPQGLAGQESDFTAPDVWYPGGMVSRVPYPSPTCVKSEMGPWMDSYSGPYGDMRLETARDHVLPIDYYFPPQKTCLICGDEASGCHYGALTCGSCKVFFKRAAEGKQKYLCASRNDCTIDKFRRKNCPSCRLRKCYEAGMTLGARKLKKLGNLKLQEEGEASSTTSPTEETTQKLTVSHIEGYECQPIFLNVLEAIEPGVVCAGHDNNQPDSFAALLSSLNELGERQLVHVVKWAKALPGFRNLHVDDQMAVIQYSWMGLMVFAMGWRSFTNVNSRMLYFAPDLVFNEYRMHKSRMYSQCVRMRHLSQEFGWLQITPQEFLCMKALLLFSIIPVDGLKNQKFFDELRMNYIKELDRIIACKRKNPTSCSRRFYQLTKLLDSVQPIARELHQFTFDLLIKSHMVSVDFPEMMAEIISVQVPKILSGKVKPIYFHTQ
UniProt P47712, sequence (whole entry, looked up): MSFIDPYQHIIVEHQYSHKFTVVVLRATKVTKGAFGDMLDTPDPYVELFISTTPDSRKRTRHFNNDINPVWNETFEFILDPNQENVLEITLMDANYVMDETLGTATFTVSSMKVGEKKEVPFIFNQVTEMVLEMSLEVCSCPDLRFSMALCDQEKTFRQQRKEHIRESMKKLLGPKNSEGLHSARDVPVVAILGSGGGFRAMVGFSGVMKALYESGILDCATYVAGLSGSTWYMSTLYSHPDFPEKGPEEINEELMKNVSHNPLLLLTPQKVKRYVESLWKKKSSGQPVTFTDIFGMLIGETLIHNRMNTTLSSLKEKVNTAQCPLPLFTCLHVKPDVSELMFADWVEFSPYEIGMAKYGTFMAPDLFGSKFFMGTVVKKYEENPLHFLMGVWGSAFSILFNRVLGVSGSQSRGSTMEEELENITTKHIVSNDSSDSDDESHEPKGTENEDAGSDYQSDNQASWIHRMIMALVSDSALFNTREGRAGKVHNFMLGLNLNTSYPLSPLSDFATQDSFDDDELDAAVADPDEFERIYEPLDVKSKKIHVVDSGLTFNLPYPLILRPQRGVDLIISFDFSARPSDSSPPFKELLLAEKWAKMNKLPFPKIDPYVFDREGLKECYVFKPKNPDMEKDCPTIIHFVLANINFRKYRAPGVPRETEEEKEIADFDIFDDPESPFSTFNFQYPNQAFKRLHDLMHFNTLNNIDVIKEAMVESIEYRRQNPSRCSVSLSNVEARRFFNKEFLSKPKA
UniProt P62937, sequence (whole entry, looked up): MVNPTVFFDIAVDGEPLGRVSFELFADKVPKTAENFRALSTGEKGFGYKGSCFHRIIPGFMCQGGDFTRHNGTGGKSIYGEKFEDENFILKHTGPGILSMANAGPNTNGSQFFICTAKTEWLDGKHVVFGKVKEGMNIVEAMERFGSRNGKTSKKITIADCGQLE

Compound = O=C(Oc1cccc(CSc2ncccn2)c1)c1ccc([N+](=O)[O-])cc1; tested on = Apelin receptor (APLNR, Homo sapiens, UniProt P35414); assay = β-arrestin recruitment, antagonist; endpoint = IC50; value = 1.2 µM
Compound = CNCc1ccc2c(c1)N(C(=O)OCC(F)(F)F)[C@H](CNC(=N)N)[C@H]2NC(=O)C(=O)Nc1ccc(Cl)c(F)c1; tested on = env (Human immunodeficiency virus 1, UniProt Q2N0S5); assay = HIV-1 infection; test system = Cf2Th-CD4/CCR5 cells; setting = 48 h; endpoint = IC50; value = 46 µM
Compound = COc1ccc(-c2nc(C(=O)NCCCN3CCOCC3)cc3c2[nH]c2ccccc23)cc1OC; tested on = RAD52; assay = ssDNA annealing, fluorescence quenching; endpoint = IC50; value = 4.8 µM
Compound = CCCCOCCCCCN1C[C@H](O)[C@@H](O)[C@H](O)[C@H]1CO; tested on = Ugcg; assay = enzyme activity, inhibitor, fluorescence; endpoint = IC50; value = 4 µM
Compound = CCN(CC)CC(=O)Nc1cccc(-n2cc(-c3ccc4ccc(-c5cn(-c6cccc(NC(=O)CN(CC)CC)c6)nn5)cc4c3)nn2)c1; tested on = ALK (Homo sapiens, UniProt Q9UM73); assay = enzyme activity, inhibitor; endpoint = IC50; value = > 10 µM
Compound = CC(=O)OC1OC(OC(C)=O)C2CC(O)(C3(C)CCCC(C)(C)C3)CCC12 (stereo not drawn); tested on = PPIA (Homo sapiens, UniProt P62937); assay = enzyme activity, inhibitor; endpoint = IC50; value = 0.064 µM
Compound = OC[C@@H]1[C@@H](O)[C@H](O)[C@@H](O)CN1CCCC/C=C\C12CC3CC(CC(C3)C1)C2; tested on = Ugcg; assay = enzyme activity, inhibitor, fluorescence; endpoint = IC50; value = 35.2 µM
Compound = COc1cc(O)cc(CCc2ccc(OC)c(O)c2CC=C(C)C)c1; tested on = Si (Rattus norvegicus, UniProt P23739); assay = enzyme activity, inhibitor, absorbance; endpoint = IC50; value = 970 µM
Compound = COCC1CN(C2CCN(c3cc(OC)c(Nc4ncc(Br)c(Nc5ccc6c(c5P(C)(C)=O)OCCO6)n4)cc3C)CC2)C1; tested on = EGFR (Homo sapiens, UniProt P00533, C797S/del746-750/T790M); assay = kinase activity, TR-FRET; setting = together with: ATP at Km; endpoint = IC50; value = 0.00018 µM
Compound = OC[C@@H]1[C@@H](O)[C@H](O)[C@@H](O)CN1CCCCCOCC1CCCCC1; tested on = Ugcg; assay = enzyme activity, inhibitor, fluorescence; endpoint = IC50; value = 0.5 µM
Compound = CCn1nc(Cl)c2c1-c1cnc(N)c(c1)O[C@H](C)c1cc(F)ccc1-c1nn(C)cc1C2; tested on = ALK (Homo sapiens, UniProt Q9UM73, G1269A); assay = enzyme activity, inhibitor; setting = together with: 1 mM ATP; endpoint = IC50; value = 0.016 µM
Compound = Cc1ccc(NS(=O)(=O)c2c(C(=O)N3CCCC3)c(C)n(C)c2C)cc1Cl; tested on = DRD3; assay = β-arrestin recruitment, antagonist, PathHunter; setting = together with: dopamine EC80; endpoint = IC50; value = > 100 µM
Compound = OC[C@@H]1[C@@H](O)[C@H](O)[C@@H](O)CN1CCCC(F)(F)COCc1ccc(-c2ccccc2)cc1; tested on = Ugcg; assay = enzyme activity, inhibitor, fluorescence; endpoint = IC50; value = 0.06 µM
Compound = Cc1cc(C)c(S(=O)(=O)N(CC(=O)O)c2ccc(Nc3ccnc(N4CCCC4)n3)cc2)c(C)c1; tested on = CHEK2 (Homo sapiens, UniProt O96017); assay = enzyme activity, inhibitor; endpoint = IC50; value = > 100 µM
Compound = Nc1ncc2c(n1)-c1c([nH]c3ccc(C4=CCOCC4)cc13)CCC2; tested on = CLK2 (Homo sapiens, UniProt P49760); assay = enzyme activity, inhibitor, radiometric; endpoint = IC50; value = 0.37 µM
Compound = COc1ccc(Nc2cc(NC3CC3)n3ncc(C#N)c3n2)cc1; tested on = CSNK2A2; assay = inhibitor; endpoint = IC50; value = 0.24 µM
Compound = Cn1nc(-c2ccc(Cl)cc2)c2cc(C(=O)NCCCN3CCCC3)sc21; tested on = RAD52; assay = D-loop formation; setting = together with: RAD52 450 nM; endpoint = IC50; value = 4.1 ± 0.14 µM
Compound = OC[C@@H]1[C@@H](O)[C@H](O)[C@@H](O)c2nccn21; tested on = sweet almond β-glucosidase; assay = inhibitor; setting = 30 min, pH 6.8, together with: p-nitrophenyl β-D-glucopyranoside; endpoint = IC50; value = 0.065 µM
Compound = O=C(Nc1ccc([C@H]2[C@@H](F)[C@@H](F)C[C@@H](F)[C@H]2F)cc1)C1CC1(F)F (stereo partly drawn); assay = liver microsome stability; test system = human liver microsomes; setting = 1 µM, without NADPH; endpoint = hepatic clearance; value = 4.7 mL/min/kg
Compound = COc1c(Cl)cccc1Nc1c(-c2ccncc2C#C[C@@]2(C)CCCN2C(=O)/C=C/CN(C)C)[nH]c2c1C(=O)NCC2; tested on = BUB1 (Homo sapiens, UniProt O43683); endpoint = IC50; value = 0.28 µM
Compound = Fc1ccc(Nc2nc(NC3CCCCC3)c3cc(Br)ccc3n2)cc1F; tested on = ADRB2 (Homo sapiens, UniProt P07550); assay = β-arrestin recruitment, antagonist; endpoint = IC50; value = 0.031 µM
Compound = Cc1cc(C)nc(NC(=S)N2CCN(Cc3ccc(C(F)(F)F)cc3)CC2)c1; tested on = GPD1 (Homo sapiens, UniProt P21695); assay = enzyme activity, inhibitor; endpoint = IC50; value = > 100 µM
Compound = C=CC(=O)Nc1cc(Nc2ncnc(Nc3ccccc3C(C)(C)O)n2)c(OC)cc1N(C)CCN(C)C; tested on = EGFR (Homo sapiens, UniProt P00533, L858R/T790M); assay = enzyme activity, inhibitor; endpoint = IC50; value = 0.00032 µM
Compound = OC[C@H]1[C@@H](O)[C@H](O)[C@@H](O)CN1CCCCCOCC(COCCCCCN1C[C@H](O)[C@@H](O)[C@H](O)[C@@H]1CO)C12CC3CC(CC(C3)C1)C2 (stereo partly drawn); tested on = Ugcg; assay = enzyme activity, inhibitor, fluorescence; endpoint = IC50; value = 10 µM
Compound = Cc1[nH]c(C)c(S(=O)(=O)Nc2cccc(Cl)c2)c1C(=O)N1CCCC1; tested on = DRD3; assay = Go activation, antagonist, BRET; setting = together with: dopamine; endpoint = IC50; value = 9.4 ± 0.6 µM
Compound = OC[C@@H]1[C@@H](O)[C@H](O)[C@@H](O)CN1CCCCCOCc1cccc(-c2ccccc2)c1; tested on = Ugcg; assay = enzyme activity, inhibitor, fluorescence; endpoint = IC50; value = 0.075 µM
Compound = Cc1nn(-c2cccc(N)c2)c(=O)c2cnc(Nc3ccc(N4CCNCC4)cc3)nc12; tested on = CSNK2A2; assay = enzyme activity, inhibitor; endpoint = IC50; value = > 10 µM
Compound = COc1cc(NC(=O)c2cnn(-c3ccc([N+](=O)[O-])cc3)c2C(F)(F)F)c(OC)cc1Cl; tested on = PTGS2 (Homo sapiens, UniProt P35354); assay = enzyme activity, inhibitor; endpoint = IC50; value = 3.82 µM
Compound = F[C@@H]1[C@H](c2ccc(-c3ccc(N4CCCC4)nc3)cc2)[C@H](F)[C@H](F)C[C@@H]1F; assay = liver microsome stability; test system = rat liver microsomes; setting = 1 µM; endpoint = hepatic clearance; value = 30 mL/min/kg
Compound = OC[C@@H]1[C@@H](O)[C@H](O)[C@@H](O)CN1CCCCCOCC1CC1; tested on = Ugcg; assay = enzyme activity, inhibitor; test system = RAW264.7; setting = in situ, together with: C6-NBD-ceramide; endpoint = IC50; value = 7.2 µM
Compound = C[C@@H](OC(=O)c1cc2cc[nH]c(=O)c2s1)C(=O)NC(c1ccccc1)c1ccccc1; tested on = PLA2G4A (Homo sapiens, UniProt P47712); assay = enzyme activity, inhibitor, fluorescence; endpoint = IC50; value = 5.35 µM
Compound = Cc1ccc(-c2nc(C(=O)NCCCN3CCOCC3)cc3c2[nH]c2ccccc23)cc1; tested on = RAD52; assay = ssDNA annealing, fluorescence quenching; endpoint = IC50; value = 2 µM
Compound = COc1ccc2c(c1)CN(C(=O)CCN1CCC(Cc3ccccc3)CC1)CCS2; tested on = KCND3 (Homo sapiens, UniProt Q9UK17); assay = Ito current, inhibitor, whole-cell patch clamp; test system = stable cell line; endpoint = IC50; value = 11.3 µM
Compound = C[C@@H]1Cc2c([nH]c3ccccc23)[C@@H](c2c(F)cc(/C=C/C(=O)O)cc2F)N1C12CC(C1)C2; tested on = Androgen receptor (AR, Homo sapiens, UniProt P10275); assay = agonist; endpoint = IC50; value = > 10 µM
Compound = OC[C@H]1N[C@H](CCCCOCC23CC4CC(CC(C4)C2)C3)[C@H](O)[C@@H](O)[C@@H]1O; tested on = Ugcg; assay = enzyme activity, inhibitor, fluorescence; endpoint = IC50; value = 50 µM
Compound = CC(C)=CCC1C2=C(OC(C(C)(C)O)CC2=O)C23C(=C(C)C)OC(C)(C)C2CCC13C (stereo not drawn); tested on = Beta-secretase 1 (Mus musculus, UniProt P56818); assay = enzyme activity in cells, inhibitor; endpoint = IC50; value = 0.74 µM

Repeated from above:
Compound = Cc1cc(C)c(S(=O)(=O)N(CC(=O)O)c2ccc(Nc3ccnc(N4CCCC4)n3)cc2)c(C)c1; tested on = CHEK2 (Homo sapiens, UniProt O96017); assay = enzyme activity, inhibitor; endpoint = IC50; value = > 100 µM
Compound = CC(C)=CCC1C2=C(OC(C(C)(C)O)CC2=O)C23C(=C(C)C)OC(C)(C)C2CCC13C (stereo not drawn); tested on = Beta-secretase 1 (Mus musculus, UniProt P56818); assay = enzyme activity in cells, inhibitor; endpoint = IC50; value = 0.74 µM
Compound = OC[C@@H]1[C@@H](O)[C@H](O)[C@@H](O)CN1CCCCCOCC1CCCCC1; tested on = Ugcg; assay = enzyme activity, inhibitor, fluorescence; endpoint = IC50; value = 0.5 µM
